# Published values collected from several papers.
# Numbers after ± are the reported error.
# FPR1: fMet-Leu-Phe receptor (FPR1, Homo sapiens, UniProt P21462)
# Sequence of UniProt P21462 (whole entry, looked up): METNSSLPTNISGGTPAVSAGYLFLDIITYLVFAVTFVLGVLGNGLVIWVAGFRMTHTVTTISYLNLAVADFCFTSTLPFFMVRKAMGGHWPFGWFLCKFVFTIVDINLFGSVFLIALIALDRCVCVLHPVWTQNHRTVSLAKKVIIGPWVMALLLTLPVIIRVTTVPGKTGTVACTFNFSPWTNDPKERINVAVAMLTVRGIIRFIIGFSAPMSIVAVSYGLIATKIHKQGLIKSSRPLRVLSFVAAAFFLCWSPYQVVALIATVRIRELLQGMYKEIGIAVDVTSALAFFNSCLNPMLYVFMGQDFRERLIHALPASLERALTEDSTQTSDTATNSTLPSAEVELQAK
# PYL4: PYL4 (Arabidopsis thaliana, UniProt O80920)
# Sequence of UniProt O80920 (whole entry, looked up): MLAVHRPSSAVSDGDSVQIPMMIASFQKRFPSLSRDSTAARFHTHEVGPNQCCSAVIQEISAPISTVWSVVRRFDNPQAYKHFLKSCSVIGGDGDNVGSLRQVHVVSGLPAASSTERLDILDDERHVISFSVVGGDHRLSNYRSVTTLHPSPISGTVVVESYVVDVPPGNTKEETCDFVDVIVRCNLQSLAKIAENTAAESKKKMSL
# IDE: Insulin-degrading enzyme (IDE, Homo sapiens, UniProt P14735)
# Sequence of UniProt P37231 (whole entry, looked up): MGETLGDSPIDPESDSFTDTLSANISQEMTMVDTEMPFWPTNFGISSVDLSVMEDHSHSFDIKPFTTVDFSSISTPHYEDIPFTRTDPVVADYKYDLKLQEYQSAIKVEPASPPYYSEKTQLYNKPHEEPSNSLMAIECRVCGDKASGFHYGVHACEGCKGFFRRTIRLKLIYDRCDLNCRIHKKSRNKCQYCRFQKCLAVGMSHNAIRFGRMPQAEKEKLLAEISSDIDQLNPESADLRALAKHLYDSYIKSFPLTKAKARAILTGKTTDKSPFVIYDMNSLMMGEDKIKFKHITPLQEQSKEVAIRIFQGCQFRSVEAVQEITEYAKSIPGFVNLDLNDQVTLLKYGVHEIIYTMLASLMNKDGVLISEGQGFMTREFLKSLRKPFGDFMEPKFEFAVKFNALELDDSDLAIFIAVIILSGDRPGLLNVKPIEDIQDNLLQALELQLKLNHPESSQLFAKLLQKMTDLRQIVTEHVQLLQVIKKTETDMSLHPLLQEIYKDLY
# Sequence of UniProt P07550 (whole entry, looked up): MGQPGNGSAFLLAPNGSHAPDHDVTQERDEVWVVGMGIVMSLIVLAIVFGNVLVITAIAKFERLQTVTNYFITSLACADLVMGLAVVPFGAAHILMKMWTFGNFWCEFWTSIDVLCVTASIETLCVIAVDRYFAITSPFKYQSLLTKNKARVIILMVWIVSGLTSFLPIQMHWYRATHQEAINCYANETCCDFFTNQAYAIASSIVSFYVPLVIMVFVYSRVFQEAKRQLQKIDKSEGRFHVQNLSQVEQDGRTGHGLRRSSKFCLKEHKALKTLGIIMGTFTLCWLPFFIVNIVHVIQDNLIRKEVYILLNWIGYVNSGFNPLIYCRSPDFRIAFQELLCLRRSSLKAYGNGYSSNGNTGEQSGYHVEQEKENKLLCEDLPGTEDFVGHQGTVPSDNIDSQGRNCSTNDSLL
# Sequence of UniProt P34995 (whole entry, unmodified, looked up): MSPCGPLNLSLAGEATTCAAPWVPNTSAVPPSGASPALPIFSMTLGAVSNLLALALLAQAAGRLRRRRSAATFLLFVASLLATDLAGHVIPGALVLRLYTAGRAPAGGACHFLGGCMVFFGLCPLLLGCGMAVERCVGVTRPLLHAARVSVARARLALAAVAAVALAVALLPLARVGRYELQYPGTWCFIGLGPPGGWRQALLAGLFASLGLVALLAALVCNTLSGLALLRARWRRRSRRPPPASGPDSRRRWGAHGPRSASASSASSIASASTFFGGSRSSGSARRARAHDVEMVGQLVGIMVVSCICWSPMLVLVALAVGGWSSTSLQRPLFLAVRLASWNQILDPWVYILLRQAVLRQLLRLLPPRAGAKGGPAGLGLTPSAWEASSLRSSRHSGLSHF
# Sequence of UniProt P11607 (whole entry, looked up): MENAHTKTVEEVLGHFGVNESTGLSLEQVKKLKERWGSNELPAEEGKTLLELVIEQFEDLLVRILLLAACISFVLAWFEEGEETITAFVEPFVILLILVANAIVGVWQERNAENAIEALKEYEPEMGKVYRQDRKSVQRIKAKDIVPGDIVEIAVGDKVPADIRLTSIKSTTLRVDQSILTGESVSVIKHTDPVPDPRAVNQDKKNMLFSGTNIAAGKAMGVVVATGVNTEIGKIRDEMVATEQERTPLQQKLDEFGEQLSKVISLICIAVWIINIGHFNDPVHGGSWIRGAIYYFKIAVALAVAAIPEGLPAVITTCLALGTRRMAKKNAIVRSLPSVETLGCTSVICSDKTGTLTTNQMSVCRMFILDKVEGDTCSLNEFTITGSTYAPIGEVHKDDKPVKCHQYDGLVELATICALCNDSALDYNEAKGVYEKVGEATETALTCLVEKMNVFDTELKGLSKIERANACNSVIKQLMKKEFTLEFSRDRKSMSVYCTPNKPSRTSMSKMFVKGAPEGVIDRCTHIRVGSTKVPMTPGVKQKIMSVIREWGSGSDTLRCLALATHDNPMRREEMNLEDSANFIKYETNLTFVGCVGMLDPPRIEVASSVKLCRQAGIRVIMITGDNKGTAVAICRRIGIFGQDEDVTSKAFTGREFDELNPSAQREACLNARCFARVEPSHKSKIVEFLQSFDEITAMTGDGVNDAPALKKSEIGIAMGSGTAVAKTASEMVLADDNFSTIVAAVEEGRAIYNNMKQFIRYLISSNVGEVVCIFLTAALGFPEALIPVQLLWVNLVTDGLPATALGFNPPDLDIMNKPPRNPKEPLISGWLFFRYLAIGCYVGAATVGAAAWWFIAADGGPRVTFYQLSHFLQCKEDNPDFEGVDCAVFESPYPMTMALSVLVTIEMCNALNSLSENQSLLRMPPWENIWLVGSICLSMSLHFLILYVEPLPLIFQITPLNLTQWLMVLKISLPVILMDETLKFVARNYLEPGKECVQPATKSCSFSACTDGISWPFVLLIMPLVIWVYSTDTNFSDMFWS
# Sequence of UniProt P35414 (whole entry, looked up): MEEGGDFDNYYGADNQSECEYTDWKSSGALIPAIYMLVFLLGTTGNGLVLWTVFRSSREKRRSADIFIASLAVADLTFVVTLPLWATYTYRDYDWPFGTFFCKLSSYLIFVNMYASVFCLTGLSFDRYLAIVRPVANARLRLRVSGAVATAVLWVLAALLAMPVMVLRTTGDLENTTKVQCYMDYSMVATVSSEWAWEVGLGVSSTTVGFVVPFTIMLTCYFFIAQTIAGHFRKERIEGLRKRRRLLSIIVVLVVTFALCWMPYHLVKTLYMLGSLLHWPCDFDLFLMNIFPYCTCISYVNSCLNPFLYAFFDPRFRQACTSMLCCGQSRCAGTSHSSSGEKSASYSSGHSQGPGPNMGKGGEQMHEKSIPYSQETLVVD
Compound,tested on,assay,test system,setting,quantity,result
N#Cc1ccc(C[C@H](Nc2nnc(-c3cccc(F)c3)s2)C(=O)N2CCc3ccccc32)cc1,FPR1,"calcium mobilization, agonist",HL-60 transfected with FPR1,inactive up to 50 µM,EC50,> 50 µM
CCCCC[C@H](O)/C=C/[C@H]1[C@H](O)CC(=O)[C@@H]1C/C=C\CCCC(=O)O,"PTGER1 (Homo sapiens, UniProt P34995, F189A)","IP1 accumulation, agonist",AD293,EP1 F189A mutant,EC50,0.178 µM
c1ccc(CCCCCOCCc2ccc3c(c2)OCO3)cc1,"ATP2A2 (Sus scrofa, UniProt P11607)","ATPase activity, activator, NADH-coupled enzyme",enriched microsomes,,EC50,~4 µM
CCOCc1nc(O)c(-c2nnc(Cc3ccc(Cl)cn3)o2)c(O)c1-c1c(OC)cccc1OC,"Apelin receptor (APLNR, Homo sapiens, UniProt P35414)","GαoA activation, agonist, BRET biosensor",HEK293,,EC50,0.0002 ± 2e-05 µM
O=C(Cc1cc(C2CC2)c(-n2cc(CNC(=O)c3ccc(Br)o3)nn2)c(C2CC2)c1)NC1(C(=O)O)CCCCC1,PYL4,"phosphatase activity recovery, antagonist",,"with: HAB1, ABA 5000 nM",EC50,0.338 ± 0.043 µM
CCC(=O)N1CCOc2c(cc(-c3ccc(OC)c(OC)c3)cc2OC[C@H]2CCCN(C)C2)C1,HBL-1,,,"0.5 µM, 120 h",viability,120%
CSc1ccc(C(=O)/C=C/c2cc(C)c(OC(C)(C)C(=O)O)c(C)c2)cc1,"PPARG (Homo sapiens, UniProt P37231)","receptor activation, agonist, luciferase reporter",,"serum-free, species human",EC50,1 µM
N#Cc1ccc(C[C@H](Nc2c(Nc3ccc(Br)cc3)c(=O)c2=O)C(=O)N2CCc3ccccc32)cc1,FPR1,"calcium mobilization, agonist",HL-60 transfected with FPR1,inactive up to 50 µM,EC50,> 50 µM
Cc1ccccc1-c1ccc([C@H]2[C@@H]3CN(C(=O)C4CCCCC4)C[C@H]2N3)cc1,IDE,"enzyme activity, inhibitor, fluorogenic kinetic",,with: Mca-RPPGFSAFK(Dnp)-OH substrate,EC50,1.5 µM
Nc1ccn([C@@H]2O[C@H](CO)[C@@H](O)C2(F)F)c(=O)n1,HBL-1,,,"0.5 µM, 120 h",viability,7.19%
CCn1c(-c2nc3cc(C(=O)N4CCC[C@@H](N)C4)cc(OC)c3n2C)cc2cccnc21,"ADRB2 (Homo sapiens, UniProt P07550)","agonist, TR-FRET",,,EC50,> 31.6 µM
Cc1cccc(-c2ccc([C@@H]3[C@@H](CO)N4CCCCN(Cc5cncnc5)C[C@@H]34)cc2)c1,IDE,"enzyme activity, inhibitor, fluorogenic kinetic",,with: Mca-RPPGFSAFK(Dnp)-OH substrate,EC50,11.9 µM
N#Cc1ccc(C[C@H](Nc2nnc(-c3ccc(F)cc3)o2)C(=O)N2CCc3ccccc32)cc1,FPR1,"calcium mobilization, agonist",HL-60 transfected with FPR1,inactive up to 50 µM,EC50,> 50 µM
CO[C@H]1CN(C)C(=O)c2cc(NC(=O)c3ccc(Oc4ccccc4)cc3)ccc2OC[C@H](C)NC[C@H]1C,IDE,"enzyme activity, inhibitor, fluorogenic kinetic",,with: Mca-RPPGFSAFK(Dnp)-OH substrate,EC50,2.8 µM
Nc1nc2c(ncn2[C@@H]2O[C@@H]3COP(=O)(O)O[C@H]3[C@H]2O)c(=O)[nH]1,"Cone cGMP-gated channel (Morone saxatilis, UniProt Q3I0N1+Q3I0N2)","channel current, agonist, suction electrode","Morone saxatilis, cone outer segments",with: 0.2 µM Ca2+,EC50,157 ± 19.8 µM
Cc1ccccc1-c1ccc([C@H]2[C@@H]3CN(S(=O)(=O)c4cn(C)cn4)C[C@H]2N3)cc1,IDE,"enzyme activity, inhibitor, fluorogenic kinetic",,with: Mca-RPPGFSAFK(Dnp)-OH substrate,EC50,3.9 µM
Cc1cccc(C(=O)NCc2cn(-c3c(C4CC4)cc(CC(=O)NC4(C(=O)O)CCCCC4)cc3C3CC3)nn2)n1,PYL4,"phosphatase activity recovery, antagonist",,"with: HAB1, ABA 5000 nM",EC50,0.585 ± 0.096 µM

# A few entries again:
Compound,tested on,assay,test system,setting,quantity,result
CCn1c(-c2nc3cc(C(=O)N4CCC[C@@H](N)C4)cc(OC)c3n2C)cc2cccnc21,"ADRB2 (Homo sapiens, UniProt P07550)","agonist, TR-FRET",,,EC50,> 31.6 µM
N#Cc1ccc(C[C@H](Nc2c(Nc3ccc(Br)cc3)c(=O)c2=O)C(=O)N2CCc3ccccc32)cc1,FPR1,"calcium mobilization, agonist",HL-60 transfected with FPR1,inactive up to 50 µM,EC50,> 50 µM
N#Cc1ccc(C[C@H](Nc2nnc(-c3ccc(F)cc3)o2)C(=O)N2CCc3ccccc32)cc1,FPR1,"calcium mobilization, agonist",HL-60 transfected with FPR1,inactive up to 50 µM,EC50,> 50 µM
